Measurements pooled from the literature.
Compare with care: the assays were run in different laboratories. ± marks the error that the study gave.
ABCG2: Broad substrate specificity ATP-binding cassette transporter ABCG2 (ABCG2, Homo sapiens, UniProt Q9UNQ0)
Sequence of UniProt Q9UNQ0 (whole entry, looked up): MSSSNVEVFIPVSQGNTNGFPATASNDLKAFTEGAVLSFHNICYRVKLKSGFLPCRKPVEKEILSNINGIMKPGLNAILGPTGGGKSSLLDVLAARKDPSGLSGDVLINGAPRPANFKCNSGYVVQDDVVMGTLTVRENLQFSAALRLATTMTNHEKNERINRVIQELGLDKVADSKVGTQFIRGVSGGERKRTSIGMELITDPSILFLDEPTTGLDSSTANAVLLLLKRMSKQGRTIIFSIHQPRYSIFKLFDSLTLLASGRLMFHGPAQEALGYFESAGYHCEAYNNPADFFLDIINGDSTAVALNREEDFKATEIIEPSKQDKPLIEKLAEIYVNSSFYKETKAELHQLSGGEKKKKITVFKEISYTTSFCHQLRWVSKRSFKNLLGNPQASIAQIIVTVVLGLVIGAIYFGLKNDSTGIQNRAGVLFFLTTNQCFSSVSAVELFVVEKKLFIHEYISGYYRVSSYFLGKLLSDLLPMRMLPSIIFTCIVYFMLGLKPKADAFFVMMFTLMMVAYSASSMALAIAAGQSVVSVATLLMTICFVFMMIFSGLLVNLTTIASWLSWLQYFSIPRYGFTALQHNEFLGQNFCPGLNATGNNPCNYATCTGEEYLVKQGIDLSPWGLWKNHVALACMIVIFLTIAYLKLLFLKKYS
Abcb1a: ATP-dependent translocase ABCB1 (Abcb1a, Mus musculus, UniProt P21447)
Sequence of UniProt P21447 (whole entry, looked up): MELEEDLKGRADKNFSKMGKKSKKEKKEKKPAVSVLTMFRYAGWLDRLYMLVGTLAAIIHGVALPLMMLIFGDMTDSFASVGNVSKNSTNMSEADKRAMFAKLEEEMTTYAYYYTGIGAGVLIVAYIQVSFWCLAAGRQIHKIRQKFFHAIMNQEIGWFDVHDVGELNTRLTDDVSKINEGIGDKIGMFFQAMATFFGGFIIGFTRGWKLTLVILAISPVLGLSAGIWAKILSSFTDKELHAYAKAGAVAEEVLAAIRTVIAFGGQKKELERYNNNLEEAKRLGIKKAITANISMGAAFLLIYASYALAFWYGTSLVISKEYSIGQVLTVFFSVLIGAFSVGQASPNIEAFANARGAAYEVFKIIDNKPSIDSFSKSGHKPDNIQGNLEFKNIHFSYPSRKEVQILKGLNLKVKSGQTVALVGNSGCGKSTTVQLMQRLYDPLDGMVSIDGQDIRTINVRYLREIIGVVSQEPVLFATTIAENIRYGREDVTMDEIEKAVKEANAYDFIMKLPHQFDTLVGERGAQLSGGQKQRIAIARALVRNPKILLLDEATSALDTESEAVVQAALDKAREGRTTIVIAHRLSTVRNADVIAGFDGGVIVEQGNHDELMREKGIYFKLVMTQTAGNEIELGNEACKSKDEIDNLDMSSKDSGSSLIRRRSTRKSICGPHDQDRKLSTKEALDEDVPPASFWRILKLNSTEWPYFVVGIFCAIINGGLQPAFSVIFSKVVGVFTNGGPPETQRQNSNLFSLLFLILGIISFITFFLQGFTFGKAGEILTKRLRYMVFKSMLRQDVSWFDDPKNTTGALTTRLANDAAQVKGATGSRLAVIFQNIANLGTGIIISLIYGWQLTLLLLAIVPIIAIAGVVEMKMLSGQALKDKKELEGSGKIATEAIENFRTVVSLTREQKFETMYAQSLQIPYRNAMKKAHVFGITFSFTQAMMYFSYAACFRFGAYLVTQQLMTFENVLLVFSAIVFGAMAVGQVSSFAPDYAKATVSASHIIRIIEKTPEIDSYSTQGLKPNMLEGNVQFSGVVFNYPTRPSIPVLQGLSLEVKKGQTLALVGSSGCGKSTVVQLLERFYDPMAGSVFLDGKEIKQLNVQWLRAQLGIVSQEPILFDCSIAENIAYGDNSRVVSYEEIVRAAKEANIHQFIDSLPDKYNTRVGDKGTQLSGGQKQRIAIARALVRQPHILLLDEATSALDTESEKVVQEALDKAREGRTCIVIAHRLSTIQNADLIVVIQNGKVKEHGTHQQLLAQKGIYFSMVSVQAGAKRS
CYP2A6: Cytochrome P450 2A6 (CYP2A6, Homo sapiens, UniProt P11509)
Sequence of UniProt P11509 (whole entry, looked up): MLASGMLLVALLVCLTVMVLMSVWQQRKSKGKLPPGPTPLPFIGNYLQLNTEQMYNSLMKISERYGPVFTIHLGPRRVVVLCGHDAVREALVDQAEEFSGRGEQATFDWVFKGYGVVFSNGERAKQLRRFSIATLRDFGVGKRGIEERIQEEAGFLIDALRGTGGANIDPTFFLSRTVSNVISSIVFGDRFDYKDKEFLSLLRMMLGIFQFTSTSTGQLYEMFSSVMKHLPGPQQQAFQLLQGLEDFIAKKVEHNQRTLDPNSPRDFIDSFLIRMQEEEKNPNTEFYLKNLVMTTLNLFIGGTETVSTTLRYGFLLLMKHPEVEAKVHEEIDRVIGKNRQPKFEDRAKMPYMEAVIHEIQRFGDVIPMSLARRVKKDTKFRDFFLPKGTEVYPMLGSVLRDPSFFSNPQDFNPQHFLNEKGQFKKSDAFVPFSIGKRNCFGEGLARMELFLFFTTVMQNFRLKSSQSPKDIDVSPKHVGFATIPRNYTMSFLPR
UGT1A1: UDP-glucuronosyltransferase 1A1 (UGT1A1, Homo sapiens, UniProt P22309)
Sequence of UniProt P22309 (whole entry, looked up): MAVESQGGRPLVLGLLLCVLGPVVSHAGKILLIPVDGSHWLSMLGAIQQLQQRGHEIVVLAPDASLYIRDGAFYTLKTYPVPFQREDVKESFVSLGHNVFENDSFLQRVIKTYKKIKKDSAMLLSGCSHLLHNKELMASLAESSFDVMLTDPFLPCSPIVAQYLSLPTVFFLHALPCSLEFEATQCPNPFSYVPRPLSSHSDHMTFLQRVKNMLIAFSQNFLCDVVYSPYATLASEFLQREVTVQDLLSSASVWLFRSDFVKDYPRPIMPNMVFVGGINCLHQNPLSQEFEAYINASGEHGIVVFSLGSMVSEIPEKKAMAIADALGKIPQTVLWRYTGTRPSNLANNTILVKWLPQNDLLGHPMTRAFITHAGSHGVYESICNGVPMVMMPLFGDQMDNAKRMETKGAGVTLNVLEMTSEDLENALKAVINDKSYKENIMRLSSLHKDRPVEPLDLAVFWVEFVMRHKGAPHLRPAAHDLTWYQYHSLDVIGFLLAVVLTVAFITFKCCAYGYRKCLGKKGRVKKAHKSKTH
Sequence of UniProt P05182 (whole entry, looked up): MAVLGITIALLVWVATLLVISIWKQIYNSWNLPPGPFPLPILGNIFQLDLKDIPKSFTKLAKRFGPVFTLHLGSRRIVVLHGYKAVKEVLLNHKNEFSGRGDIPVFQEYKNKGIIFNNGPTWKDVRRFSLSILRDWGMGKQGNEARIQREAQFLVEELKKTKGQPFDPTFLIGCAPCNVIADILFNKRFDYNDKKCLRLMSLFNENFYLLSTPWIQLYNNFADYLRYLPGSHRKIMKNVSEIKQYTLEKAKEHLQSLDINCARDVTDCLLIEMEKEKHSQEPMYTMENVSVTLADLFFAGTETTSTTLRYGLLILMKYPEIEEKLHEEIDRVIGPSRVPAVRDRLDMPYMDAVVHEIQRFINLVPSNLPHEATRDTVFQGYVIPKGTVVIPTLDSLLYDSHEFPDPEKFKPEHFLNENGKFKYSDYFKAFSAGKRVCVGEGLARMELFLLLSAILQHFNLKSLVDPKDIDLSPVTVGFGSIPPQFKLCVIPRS
Sequence of UniProt Q9NPD5 (whole entry, looked up): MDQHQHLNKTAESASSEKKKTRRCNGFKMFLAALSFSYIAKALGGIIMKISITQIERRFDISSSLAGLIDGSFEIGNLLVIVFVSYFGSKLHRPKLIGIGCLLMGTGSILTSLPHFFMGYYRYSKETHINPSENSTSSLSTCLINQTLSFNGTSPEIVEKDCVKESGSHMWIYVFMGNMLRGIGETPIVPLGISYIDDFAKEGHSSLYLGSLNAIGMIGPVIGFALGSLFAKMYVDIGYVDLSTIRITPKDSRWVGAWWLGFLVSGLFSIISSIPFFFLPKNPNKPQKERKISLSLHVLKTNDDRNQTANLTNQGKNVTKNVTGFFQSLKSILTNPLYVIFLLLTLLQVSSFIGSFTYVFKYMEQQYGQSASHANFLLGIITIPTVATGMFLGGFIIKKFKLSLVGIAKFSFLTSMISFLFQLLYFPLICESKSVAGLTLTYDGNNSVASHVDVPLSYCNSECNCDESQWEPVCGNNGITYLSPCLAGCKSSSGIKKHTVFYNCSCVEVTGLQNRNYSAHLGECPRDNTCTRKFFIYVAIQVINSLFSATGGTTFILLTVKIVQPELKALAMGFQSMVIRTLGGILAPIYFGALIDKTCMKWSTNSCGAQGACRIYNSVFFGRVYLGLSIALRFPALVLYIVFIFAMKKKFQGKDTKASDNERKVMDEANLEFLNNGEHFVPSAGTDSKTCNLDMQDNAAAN
Sequence of UniProt O35084 (whole entry, looked up): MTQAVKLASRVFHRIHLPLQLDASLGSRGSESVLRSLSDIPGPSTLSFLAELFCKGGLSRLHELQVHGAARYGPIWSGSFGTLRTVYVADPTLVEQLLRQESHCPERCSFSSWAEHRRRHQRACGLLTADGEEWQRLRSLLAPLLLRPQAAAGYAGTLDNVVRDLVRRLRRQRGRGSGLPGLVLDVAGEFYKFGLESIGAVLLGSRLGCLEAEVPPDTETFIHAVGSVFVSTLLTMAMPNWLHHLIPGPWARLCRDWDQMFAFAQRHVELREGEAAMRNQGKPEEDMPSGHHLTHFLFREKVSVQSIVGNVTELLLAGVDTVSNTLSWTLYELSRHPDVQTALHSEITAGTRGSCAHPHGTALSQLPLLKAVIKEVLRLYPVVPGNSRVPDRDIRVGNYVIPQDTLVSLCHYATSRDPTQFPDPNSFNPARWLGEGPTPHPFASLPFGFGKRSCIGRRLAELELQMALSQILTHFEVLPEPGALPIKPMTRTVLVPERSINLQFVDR

CC(C)(C)c1cc(N2CCN(C(=O)c3ccoc3)CC2)n2nc(-c3ccccc3)cc2n1  IC50 (ABCG2; JC-1 dye efflux, inhibitor, flow cytometry; ABCG2-overexpressing cells; together with: JC-1 1 µM): 11.5 µM
O=C(O)Cc1ccccc1Nc1c(Cl)cccc1Cl  IC50 (UGT, human; 4-MU glucuronidation, inhibitor; pooled human liver microsomes; 30 min, pH 7.4, together with: 4-methylumbelliferone 100 µM): 86.4 ± 1.28 µM
C#Cc1cc(N2CCN(C(=O)c3ccoc3)CC2)n2nc(-c3cccc(Cl)c3)cc2n1  IC50 (ABCG2; JC-1 dye efflux, inhibitor, flow cytometry; ABCG2-overexpressing cells; together with: JC-1 1 µM): 2.36 ± 0.53 µM
C=C1CC[C@H](O)C/C1=C/C=C1\CCC[C@@]2(C)[C@H]1CC[C@@H]2[C@@](C)(O)CCCC(C)C  number of products (25-hydroxyvitamin D-1 alpha hydroxylase, mitochondrial (Mus musculus, UniProt O35084); substrate; phospholipid vesicles; 1 h, 0.025 mol per mol phospholipid, 0.8 µM enzyme): 1
C=C  Km (Cytochrome P450 2E1 (Cyp2e1, Rattus norvegicus, UniProt P05182); substrate, headspace gas uptake, item: ethylene oxide formation; Fischer 344 rat, pooled liver microsomes): 31 ± 5 µM
liraglutide  protein binding (α1-acid glycoprotein human; equilibrium dialysis; 10 nM, 4 to 5 h, pH 7.4, 37 °C, ratio 10:1 (90% bound), together with: AAGP 1 mg/mL): 93%
O=C(C1CCCCC1)N1CCN(c2cc(-c3ccccc3)nc3cc(-c4cccc(Cl)c4)nn23)CC1  IC50 (ABCG2; JC-1 dye efflux, inhibitor, flow cytometry; ABCG2-overexpressing cells; together with: JC-1 1 µM): 2.67 ± 1.26 µM
C[C@H]1O[C@@H](O[C@H]2[C@@H](O)C[C@H](O[C@H]3[C@@H](O)C[C@H](O[C@H]4CC[C@@]5(C)[C@H](CC[C@@H]6[C@@H]5C[C@@H](O)[C@]5(C)[C@@H](C7=CC(=O)OC7)CC[C@]65O)C4)O[C@@H]3C)O[C@@H]2C)C[C@H](O)[C@@H]1O  efflux ratio (P-glycoprotein; MDCK-MDR1; 0.01 µM, 120 min, pH 7.4, 1% FBS): 6.75 ± 1.34
COc1ccc2[nH]c([S+]([O-])Cc3ncc(C)c(OC)c3C)nc2c1 (centres unmarked)  inhibition (cytochrome P450, rat; rat liver microsomes; 100 µM, 60 min, pH 7.4): 54%
COc1ccccc1-c1cc(N2CCN(C(=O)c3ccoc3)CC2)n2nc(-c3ccccc3)cc2n1  IC50 (ABCG2; JC-1 dye efflux, inhibitor, flow cytometry; ABCG2-overexpressing cells; together with: JC-1 1 µM): 3.66 ± 2.54 µM
C[C@H]1O[C@@H](O[C@H]2[C@@H](O)C[C@H](O[C@H]3[C@@H](O)C[C@H](O[C@H]4CC[C@@]5(C)[C@H](CC[C@@H]6[C@@H]5C[C@@H](O)[C@]5(C)[C@@H](C7=CC(=O)OC7)CC[C@]65O)C4)O[C@@H]3C)O[C@@H]2C)C[C@H](O)[C@@H]1O  Papp (Abcb1a; LLC-PK1 cells expressing mouse Abcb1a; 3.5 h, together with: zosuquidar 1 µM; apical to basolateral): 4.1 ± 0.38 ×10⁻⁶ cm/s
COc1cccc(-c2cc(N3CCN(C(=O)c4ccoc4)CC3)n3nc(-c4cccc(Cl)c4)cc3n2)c1  IC50 (ABCG2; JC-1 dye efflux, inhibitor, flow cytometry; ABCG2-overexpressing cells; together with: JC-1 1 µM): 1.14 ± 0.54 µM
O=C(Nc1cnn2ccc(N3CCC[C@@H]3c3cc(F)ccc3F)nc12)N1CC[C@H](O)C1  Papp (Abcb1a; LLC-PK1 cells expressing mouse Abcb1a; 3.5 h, together with: zosuquidar 1 µM; apical to basolateral): 5.15 ± 0.21 ×10⁻⁶ cm/s
Cc1coc2c1CC[C@@H](C)C2  kinact (CYP2A6; enzyme activity, inhibitor; pH 7.4): 0.0167 s⁻¹
O=c1c(O)c(-c2ccc(O)cc2)oc2cc(O)ccc12  inhibition (UGT1A1; glucuronidation rate, inhibitor; 5 µM, together with: 7-hydroxyflavone substrate; baseline: no inhibitor): 81.1 ± 4.5%
CC/C=C\C/C=C\C/C=C\CCCCCCCC(=O)O  IC50 (UGT1A1; enzyme activity, inhibitor): 26.1 µM
O=C(O)[C@H]1O[C@@H](Oc2ccc3c(=O)cc(-c4ccccc4)oc3c2)[C@H](O)[C@@H](O)[C@@H]1O  Km (UGT1A1; glucuronidation, substrate, Supersomes): 1.89 ± 0.13 µM
O=C(c1ccoc1)N1CCN(c2cc(-c3ccco3)nc3cc(-c4cccc(Cl)c4)nn23)CC1  IC50 (ABCG2; JC-1 dye efflux, inhibitor, flow cytometry; ABCG2-overexpressing cells; together with: JC-1 1 µM): 2.55 µM
Nn1nnc2ccccc21  inhibition (cytochrome P450 (human intestinal microsomes); M1 formation, inhibitor; pooled human intestinal microsomes; concentration not given, 5 min, together with: 3 µM substrate): 86%
O=C(CCC(C(=O)[O-])N1CCN(C(CCC(=O)NCC(O)CO)C(=O)[O-])Cc2cccc(n2)CN(C(CCC(=O)NCC(O)CO)C(=O)[O-])CC1)NCC(O)CO.[Gd+3] (centres unmarked)  log K (metal complex; pH-metric titration; pH 7.4): 15.5
O=C(c1ccccc1)N1CCN(c2cc(-c3ccccc3)nc3cc(-c4cccc(F)c4)nn23)CC1  IC50 (ABCG2; JC-1 dye efflux, inhibitor, flow cytometry; ABCG2-overexpressing cells; together with: JC-1 1 µM): 2.27 ± 0.06 µM
O=C1CC(c2ccccc2)Oc2ccccc21 (centres unmarked)  Km (CYP2A6; substrate, item: hydroxy metabolite M2 formation; reconstituted system): 41 µM
Nc1ccc(S(=O)(=O)Nc2ccnn2-c2ccccc2)cc1  inhibition (cytochrome P450, rat; rat liver microsomes; 10 µM, 60 min, pH 7.4): 49%
CCOc1cc2ncc(C#N)c(Nc3ccc(OCc4ccccn4)c(Cl)c3)c2cc1NC(=O)/C=C/CN(C)C  BBB passive plus efflux clearance (ABCB1 and ABCG2; IVIVE scaling; human): 207 mL/min
C=CC(=O)N1CCC([C@@H]2CCNc3c(C(N)=O)c(-c4ccc(Oc5ccccc5)cc4)nn32)CC1  remaining activity (SLCO1B3 (Homo sapiens, UniProt Q9NPD5); transport, item: estradiol-17β-glucuronide uptake; HEK293 transfected; 0.2 µM; baseline: vehicle): 95.2 ± 8%
COc1cccc(C(=O)N2CCN(c3cc(-c4ccccc4)nc4cc(-c5cccc(Cl)c5)nn34)CC2)c1  IC50 (ABCG2; JC-1 dye efflux, inhibitor, flow cytometry; ABCG2-overexpressing cells; together with: JC-1 1 µM): 4.45 ± 4.68 µM
CC[C@H](C)[C@H](NC(=O)[C@H](CCC(=O)O)NC(=O)[C@H](CO)NC(=O)[C@@H](NC(=O)[C@@H](N)CO)C(C)C)C(=O)N[C@@H](CCC(N)=O)C(=O)N[C@@H](CC(C)C)C(=O)N[C@@H](CCSC)C(=O)N[C@@H](Cc1cnc[nH]1)C(=O)N[C@@H](CC(N)=O)C(=O)N[C@@H](CC(C)C)C(=O)NCC(=O)N[C@@H](CCCCN)C(=O)N[C@@H](Cc1cnc[nH]1)C(=O)N[C@@H](CC(C)C)C(=O)N[C@@H](CC(N)=O)C(=O)N[C@@H](CO)C(=O)N[C@@H](CCSC)C(=O)N[C@@H](CCC(=O)O)C(=O)N[C@@H](CCCN=C(N)N)C(=O)N[C@H](C(=O)N[C@@H](CCC(=O)O)C(=O)N[C@@H](Cc1c[nH]c2ccccc12)C(=O)N[C@@H](CC(C)C)C(=O)N[C@@H](CCCN=C(N)N)C(=O)N[C@@H](CCCCN)C(=O)N[C@@H](CCCCN)C(=O)N[C@@H](CC(C)C)C(=O)N[C@@H](CCC(N)=O)C(=O)N[C@@H](CC(=O)O)C(=O)N[C@H](C(=O)N[C@@H](Cc1cnc[nH]1)C(=O)N[C@@H](CC(N)=O)C(=O)N[C@@H](Cc1ccccc1)C(=O)O)C(C)C)C(C)C  remaining intact compound (trypsin (bovine pancreas); proteolytic degradation, HPLC-UV; 0.5 mg/mL, 0.25 h, pH 6.5, 37 °C, together with: trypsin with soybean trypsin inhibitor): 92 ± 1%
O=C1[C@H](CC[C@H](O)c2ccc(F)cc2)[C@@H](c2ccc(O)cc2)N1c1ccc(F)cc1  Tmax (free compound; human, male, plasma; oral, 10 mg, steady state, with or without rosuvastatin): 7.3 h
CC(=O)c1cc(C(=O)N[C@@H](C)Cn2ccc(-c3ccc(C#N)c(Cl)c3)n2)[nH]n1  IC50 (UGT1A1; enzyme activity, inhibitor; human, liver microsomes): 6.41 µM
